Published values from different studies.
A part holds a random share of what one study measured.
Chain of UniProt P42336 (whole entry, unmodified, looked up): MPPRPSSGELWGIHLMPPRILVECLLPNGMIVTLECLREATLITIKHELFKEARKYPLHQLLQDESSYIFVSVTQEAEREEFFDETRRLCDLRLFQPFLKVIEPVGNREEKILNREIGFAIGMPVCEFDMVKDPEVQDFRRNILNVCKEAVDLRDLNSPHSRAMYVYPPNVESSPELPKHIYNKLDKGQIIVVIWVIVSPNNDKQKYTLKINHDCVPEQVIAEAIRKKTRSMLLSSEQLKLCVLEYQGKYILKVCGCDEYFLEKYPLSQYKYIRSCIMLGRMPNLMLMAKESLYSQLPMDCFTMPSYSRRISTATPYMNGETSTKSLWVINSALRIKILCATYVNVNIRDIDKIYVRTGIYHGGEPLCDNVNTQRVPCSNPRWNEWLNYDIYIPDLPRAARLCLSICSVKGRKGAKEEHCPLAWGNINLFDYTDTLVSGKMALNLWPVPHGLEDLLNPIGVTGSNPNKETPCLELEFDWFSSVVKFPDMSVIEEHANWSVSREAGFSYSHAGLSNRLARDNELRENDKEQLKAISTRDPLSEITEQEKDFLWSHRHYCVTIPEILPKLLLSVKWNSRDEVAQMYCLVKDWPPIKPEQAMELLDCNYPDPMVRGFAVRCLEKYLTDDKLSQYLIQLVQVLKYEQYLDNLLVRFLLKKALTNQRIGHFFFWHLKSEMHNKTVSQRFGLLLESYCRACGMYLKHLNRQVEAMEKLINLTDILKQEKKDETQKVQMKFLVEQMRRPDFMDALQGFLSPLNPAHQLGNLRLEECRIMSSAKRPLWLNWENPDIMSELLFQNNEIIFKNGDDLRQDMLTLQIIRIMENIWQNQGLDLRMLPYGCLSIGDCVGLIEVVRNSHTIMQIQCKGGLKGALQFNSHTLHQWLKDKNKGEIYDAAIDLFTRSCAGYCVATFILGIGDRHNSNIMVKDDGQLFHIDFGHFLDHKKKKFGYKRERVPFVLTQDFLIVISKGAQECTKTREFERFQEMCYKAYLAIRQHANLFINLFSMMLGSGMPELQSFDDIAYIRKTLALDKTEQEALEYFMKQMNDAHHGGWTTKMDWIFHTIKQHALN
Chain of UniProt Q13237 (whole entry, looked up): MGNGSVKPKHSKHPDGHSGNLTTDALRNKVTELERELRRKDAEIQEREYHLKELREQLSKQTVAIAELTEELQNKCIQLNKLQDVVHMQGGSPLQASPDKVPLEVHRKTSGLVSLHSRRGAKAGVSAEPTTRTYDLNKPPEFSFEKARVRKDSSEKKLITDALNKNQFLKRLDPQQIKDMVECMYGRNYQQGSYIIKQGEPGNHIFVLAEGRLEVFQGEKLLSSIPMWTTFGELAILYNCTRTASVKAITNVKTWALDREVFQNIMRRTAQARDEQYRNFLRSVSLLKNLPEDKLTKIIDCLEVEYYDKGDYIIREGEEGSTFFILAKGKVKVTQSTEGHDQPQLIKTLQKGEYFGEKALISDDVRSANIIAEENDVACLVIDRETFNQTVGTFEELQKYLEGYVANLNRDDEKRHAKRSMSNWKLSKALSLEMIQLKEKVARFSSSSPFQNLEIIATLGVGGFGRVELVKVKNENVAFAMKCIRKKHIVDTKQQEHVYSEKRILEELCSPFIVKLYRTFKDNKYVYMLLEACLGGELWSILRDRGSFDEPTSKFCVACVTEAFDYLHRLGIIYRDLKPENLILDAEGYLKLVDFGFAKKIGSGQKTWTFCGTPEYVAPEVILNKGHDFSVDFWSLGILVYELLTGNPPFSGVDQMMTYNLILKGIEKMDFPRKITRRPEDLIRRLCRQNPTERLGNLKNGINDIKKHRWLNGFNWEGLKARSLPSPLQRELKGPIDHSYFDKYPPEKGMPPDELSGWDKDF
Chain of UniProt P10721 (whole entry, unmodified, looked up): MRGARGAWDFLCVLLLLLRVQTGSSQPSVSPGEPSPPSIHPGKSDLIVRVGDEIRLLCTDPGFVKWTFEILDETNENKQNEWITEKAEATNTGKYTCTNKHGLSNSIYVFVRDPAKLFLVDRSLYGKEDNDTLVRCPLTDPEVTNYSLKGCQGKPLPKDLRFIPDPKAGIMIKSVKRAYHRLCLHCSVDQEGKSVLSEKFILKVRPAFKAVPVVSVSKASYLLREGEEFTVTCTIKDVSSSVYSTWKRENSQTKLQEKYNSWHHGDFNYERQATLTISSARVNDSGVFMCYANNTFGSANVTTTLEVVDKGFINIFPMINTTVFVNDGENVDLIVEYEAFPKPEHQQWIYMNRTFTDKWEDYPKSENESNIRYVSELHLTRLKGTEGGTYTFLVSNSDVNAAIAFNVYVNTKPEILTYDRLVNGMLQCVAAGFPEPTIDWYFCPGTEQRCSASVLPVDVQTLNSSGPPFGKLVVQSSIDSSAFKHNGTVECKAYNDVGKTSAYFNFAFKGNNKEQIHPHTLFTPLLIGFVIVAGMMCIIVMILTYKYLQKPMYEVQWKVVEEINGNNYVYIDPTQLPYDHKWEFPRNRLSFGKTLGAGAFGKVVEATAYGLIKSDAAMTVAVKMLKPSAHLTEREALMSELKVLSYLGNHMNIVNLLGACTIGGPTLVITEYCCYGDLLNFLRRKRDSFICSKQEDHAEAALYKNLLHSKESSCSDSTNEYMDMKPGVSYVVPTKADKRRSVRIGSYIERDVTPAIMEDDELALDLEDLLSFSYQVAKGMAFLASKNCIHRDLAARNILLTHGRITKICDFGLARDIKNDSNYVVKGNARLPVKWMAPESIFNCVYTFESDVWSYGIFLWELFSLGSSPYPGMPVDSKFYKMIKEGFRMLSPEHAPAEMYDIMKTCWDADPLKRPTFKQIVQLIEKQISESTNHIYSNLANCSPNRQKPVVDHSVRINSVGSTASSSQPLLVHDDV
Chain of UniProt P42681 (whole entry, looked up): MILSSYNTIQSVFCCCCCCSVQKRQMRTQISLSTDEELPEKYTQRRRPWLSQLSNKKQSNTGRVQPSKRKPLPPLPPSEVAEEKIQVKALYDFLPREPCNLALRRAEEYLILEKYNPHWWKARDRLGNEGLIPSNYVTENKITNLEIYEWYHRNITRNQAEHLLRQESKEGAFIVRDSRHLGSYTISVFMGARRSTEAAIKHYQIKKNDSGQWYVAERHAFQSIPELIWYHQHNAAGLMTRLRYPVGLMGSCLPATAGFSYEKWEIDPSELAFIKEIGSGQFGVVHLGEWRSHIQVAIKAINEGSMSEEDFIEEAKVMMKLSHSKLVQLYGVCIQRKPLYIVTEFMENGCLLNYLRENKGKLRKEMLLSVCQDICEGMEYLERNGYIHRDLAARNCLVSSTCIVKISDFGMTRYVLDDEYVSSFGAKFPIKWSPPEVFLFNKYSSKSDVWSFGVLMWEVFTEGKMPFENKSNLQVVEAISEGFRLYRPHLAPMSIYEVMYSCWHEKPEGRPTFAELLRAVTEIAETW
Chain of UniProt Q6P2M8 (whole entry, looked up): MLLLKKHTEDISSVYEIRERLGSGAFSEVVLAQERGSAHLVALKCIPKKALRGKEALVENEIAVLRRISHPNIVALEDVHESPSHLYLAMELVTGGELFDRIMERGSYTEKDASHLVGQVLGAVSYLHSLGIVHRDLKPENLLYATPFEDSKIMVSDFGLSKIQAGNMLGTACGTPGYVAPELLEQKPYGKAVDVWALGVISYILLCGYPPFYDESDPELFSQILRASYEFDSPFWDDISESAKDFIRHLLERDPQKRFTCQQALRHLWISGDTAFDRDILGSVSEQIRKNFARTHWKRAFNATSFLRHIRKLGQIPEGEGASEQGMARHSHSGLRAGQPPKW
Chain of UniProt Q15759 (whole entry, looked up): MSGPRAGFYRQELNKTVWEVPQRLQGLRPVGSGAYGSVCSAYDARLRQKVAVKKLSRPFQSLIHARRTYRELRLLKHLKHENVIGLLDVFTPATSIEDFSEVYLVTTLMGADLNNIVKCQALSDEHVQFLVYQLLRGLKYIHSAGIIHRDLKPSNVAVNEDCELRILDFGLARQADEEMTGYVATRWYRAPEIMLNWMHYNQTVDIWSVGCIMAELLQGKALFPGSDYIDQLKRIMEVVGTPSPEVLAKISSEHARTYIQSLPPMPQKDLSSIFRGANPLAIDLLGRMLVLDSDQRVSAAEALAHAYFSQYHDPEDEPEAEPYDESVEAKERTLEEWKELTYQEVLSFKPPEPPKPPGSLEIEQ
Chain of UniProt Q9NYL2 (whole entry, looked up): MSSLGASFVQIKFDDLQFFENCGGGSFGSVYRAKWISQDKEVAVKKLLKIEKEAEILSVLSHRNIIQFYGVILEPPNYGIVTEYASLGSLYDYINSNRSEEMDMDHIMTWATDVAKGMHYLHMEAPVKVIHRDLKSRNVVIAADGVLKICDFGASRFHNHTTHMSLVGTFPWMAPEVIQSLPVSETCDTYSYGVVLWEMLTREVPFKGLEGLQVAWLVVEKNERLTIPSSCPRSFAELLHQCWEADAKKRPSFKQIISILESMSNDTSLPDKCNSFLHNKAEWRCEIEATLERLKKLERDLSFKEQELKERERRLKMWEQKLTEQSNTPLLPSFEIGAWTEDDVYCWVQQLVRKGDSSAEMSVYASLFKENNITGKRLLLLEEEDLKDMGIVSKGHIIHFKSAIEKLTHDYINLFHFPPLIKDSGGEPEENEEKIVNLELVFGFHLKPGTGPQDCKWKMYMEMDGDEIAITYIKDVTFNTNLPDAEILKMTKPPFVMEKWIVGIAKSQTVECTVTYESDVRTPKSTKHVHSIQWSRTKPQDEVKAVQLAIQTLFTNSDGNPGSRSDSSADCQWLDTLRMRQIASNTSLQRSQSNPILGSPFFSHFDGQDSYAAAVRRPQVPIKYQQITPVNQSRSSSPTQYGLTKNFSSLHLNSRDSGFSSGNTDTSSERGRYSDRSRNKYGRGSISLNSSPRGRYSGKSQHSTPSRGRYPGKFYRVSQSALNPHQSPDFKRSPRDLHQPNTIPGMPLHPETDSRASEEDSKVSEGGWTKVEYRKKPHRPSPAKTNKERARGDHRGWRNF

Set 1 — read-out: cell-free assay; technique: competition with immobilised ligand; concentration: 1 µM
SMILES: CCC(=O)N[C@@H]1CC[C@H](C(=O)N(C)c2ccc(-c3nc4ccccc4o3)cc2)C1
PIK3CA (Homo sapiens, UniProt P42336, M1043I) — remaining binding: 100%.
KIT (Homo sapiens, UniProt P10721, V559D) — remaining binding: 100%.
TAOK1 (Homo sapiens, UniProt Q7L7X3) — remaining binding: 97%.
MAP3K20 (Homo sapiens, UniProt Q9NYL2) — remaining binding: 78%.
It gave 100% for remaining binding (PTK2B (Homo sapiens, UniProt Q14289)).
The remaining binding was 100% (DAPK3 (Homo sapiens, UniProt O43293)).
The remaining binding was 100% (BMPR2 (Homo sapiens, UniProt Q13873)).
It gave 100% for remaining binding (CDK17 (Homo sapiens, UniProt Q00537)).
The remaining binding was 100% (SLK (Homo sapiens, UniProt Q9H2G2)).
ULK2 (Homo sapiens, UniProt Q8IYT8) — remaining binding: 100%.

Set 2 — SMILES: O=C(Nc1ccccc1)Nc1cccc(Oc2ccc3nccn3n2)c1; concentration: 1 µM
It gave 100% for remaining binding (PRKAA2 (Homo sapiens, UniProt P54646); competitive binding; AMPK-alpha2).
It gave 100% for remaining binding (PRKG2 (Homo sapiens, UniProt Q13237); competitive binding panel; reference: vehicle).
It gave 100% for remaining binding (OXSR1 (Homo sapiens, UniProt O95747); competitive binding panel, measured: OSR1; reference: vehicle).
CDK4 (Homo sapiens, UniProt P11802); competitive binding panel; reference: vehicle — remaining binding: 100%.
For MYLK4 (Homo sapiens, UniProt Q86YV6); competitive binding panel; reference: vehicle: remaining binding read 100%.
YES1 (Homo sapiens, UniProt P07947); competitive binding; YES — remaining binding: 100%.
It gave 99% for remaining binding (PIK3CA (Homo sapiens, UniProt P42336, E545K); competitive binding panel; reference: vehicle).
For SRPK3 (Homo sapiens, UniProt Q9UPE1); competitive binding panel; reference: vehicle: remaining binding read 71%.
For PIK3CA (Homo sapiens, UniProt P42336, E545A); competitive binding panel; reference: vehicle: remaining binding read 100%.
For EPHB3 (Homo sapiens, UniProt P54753); competitive binding panel; reference: vehicle: remaining binding read 100%.
DYRK1A (Homo sapiens, UniProt Q13627); competitive binding panel; reference: vehicle — remaining binding: 100%.
The remaining binding was 92% (SGK2 (Homo sapiens, UniProt Q9HBY8); competitive binding panel; reference: vehicle).

Set 3 — organism: Plasmodium berghei; mode: inhibitor; cell line: Huh-7; strain: GFP-expressing sporozoites, liver stage; concentration: 10 µM; time: 24 h; reference: untreated control
The infection rate of `CN(C)CCC=C1c2ccccc2C=Cc2ccccc21` is reported as 96.7%.
With `CC(=O)c1ccc(S(=O)(=O)NC(=O)NC2CCCCC2)cc1` the infection rate was 85.1%.
The infection rate of `CN(C(=O)C(Cl)Cl)c1ccc(OC(=O)c2ccco2)cc1` is reported as 88.5%.
For `CCN(CC)Cc1cc(Nc2ccnc3cc(Cl)ccc23)ccc1O`, the infection rate was 46%.
The infection rate of `COC(=O)N/N=C/c1c[n+]([O-])c2ccccc2[n+]1[O-]` is reported as 117%.
With `Cc1c(N(C)C)c(=O)n(-c2ccccc2)n1C` the infection rate was 125%.
For `Nc1ncnc2c1ncn2[C@@H]1O[C@H](CO)[C@@H](O)[C@H]1O`, the infection rate was 96%.
`CCCCNc1cc(C(=O)O)cc(S(N)(=O)=O)c1Oc1ccccc1` has an infection rate of 103%.
With `CC(=O)Nc1ccccc1` the infection rate was 105%.
`C[N+](C)(C)CCOP(=O)(O)OP(=O)([O-])OC[C@H]1O[C@@H](n2ccc(N)nc2=O)[C@H](O)[C@@H]1O` has an infection rate of 0.92%.

Set 4 — Compound: CC(C)n1cnc2c(Nc3cccc(Cl)c3)nc(NCCO)nc21; read-out: enzyme activity; mode: inhibitor; concentration: 0.5 µM; reference: control
For CAMK4 (Homo sapiens, UniProt Q16566): remaining activity read 101%.
For MAP2K1 (Homo sapiens, UniProt Q02750): remaining activity read 92.8%.
NEK3 (Homo sapiens, UniProt P51956) — remaining activity: 92.6%.
For CLK3 (Homo sapiens, UniProt P49761): remaining activity read 77.8%.
For KDR (Homo sapiens, UniProt P35968): remaining activity read 103%.
It gave 96.7% for remaining activity (PAK3 (Homo sapiens, UniProt O75914)).
It gave 36.1% for remaining activity (CLK4 (Homo sapiens, UniProt Q9HAZ1)).
RPS6KA4 (Homo sapiens, UniProt O75676) — remaining activity: 83.8%.
The remaining activity was 88.1% (MARK4 (Homo sapiens, UniProt Q96L34)).
For PNCK (Homo sapiens, UniProt Q6P2M8): remaining activity read 100%.
It gave 78.1% for remaining activity (TXK (Homo sapiens, UniProt P42681)).
Cyclin-dependent kinase 9, with cyclin K (CDK9, Homo sapiens, UniProt P50750) — remaining activity: 86.9%.
The remaining activity was 82.7% (PRKG2 (Homo sapiens, UniProt Q13237)).
The remaining activity was 107% (MAPK1 (Homo sapiens, UniProt P28482)).
The remaining activity was 101% (ROCK1 (Homo sapiens, UniProt Q13464)).
The remaining activity was 98.7% (MARK2 (Homo sapiens, UniProt Q7KZI7)).
For MAPK14 (Homo sapiens, UniProt Q16539): remaining activity read 90.7%.
For PLK3 (Homo sapiens, UniProt Q9H4B4): remaining activity read 48.5%.
MINK1 (Homo sapiens, UniProt Q8N4C8) — remaining activity: 86.3%.
For DDR2 (Homo sapiens, UniProt Q16832): remaining activity read 93.3%.
For GRK4 (Homo sapiens, UniProt P32298): remaining activity read 93.5%.
The remaining activity was 92.2% (MAPK11 (Homo sapiens, UniProt Q15759)).
AKT2 (Homo sapiens, UniProt P31751) — remaining activity: 92.4%.
The remaining activity was 83.9% (MET (Homo sapiens, UniProt P08581)).
DCLK2 (Homo sapiens, UniProt Q8N568) — remaining activity: 97.8%.

A few entries again (set 4):
For CAMK4 (Homo sapiens, UniProt Q16566): remaining activity read 101%.
For MAP2K1 (Homo sapiens, UniProt Q02750): remaining activity read 92.8%.
NEK3 (Homo sapiens, UniProt P51956) — remaining activity: 92.6%.
For CLK3 (Homo sapiens, UniProt P49761): remaining activity read 77.8%.
For KDR (Homo sapiens, UniProt P35968): remaining activity read 103%.
It gave 96.7% for remaining activity (PAK3 (Homo sapiens, UniProt O75914)).
